# Measurements collected from several papers.
# Lines come from different studies, so protocols differ. ± marks the error that the study gave.
# CYP2B6: Cytochrome P450 2B6 (CYP2B6, Homo sapiens, UniProt P20813)
# Sequence of UniProt P20813 (whole entry, looked up): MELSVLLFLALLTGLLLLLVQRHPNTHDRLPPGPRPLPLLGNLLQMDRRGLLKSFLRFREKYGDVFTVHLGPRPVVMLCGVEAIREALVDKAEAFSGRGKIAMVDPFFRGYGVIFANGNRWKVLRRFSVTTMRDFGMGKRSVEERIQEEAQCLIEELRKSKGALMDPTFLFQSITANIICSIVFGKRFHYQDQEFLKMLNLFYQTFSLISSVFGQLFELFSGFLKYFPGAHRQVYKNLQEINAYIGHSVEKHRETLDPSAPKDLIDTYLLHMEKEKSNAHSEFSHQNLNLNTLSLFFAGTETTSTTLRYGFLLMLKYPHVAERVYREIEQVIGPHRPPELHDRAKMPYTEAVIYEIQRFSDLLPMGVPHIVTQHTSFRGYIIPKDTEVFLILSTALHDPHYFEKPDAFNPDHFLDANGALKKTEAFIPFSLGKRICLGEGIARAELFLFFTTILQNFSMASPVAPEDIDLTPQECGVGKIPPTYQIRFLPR
# CYP3A4: Cytochrome P450 3A4 (CYP3A4, Homo sapiens, UniProt P08684)
# Sequence of UniProt P08684 (whole entry, looked up): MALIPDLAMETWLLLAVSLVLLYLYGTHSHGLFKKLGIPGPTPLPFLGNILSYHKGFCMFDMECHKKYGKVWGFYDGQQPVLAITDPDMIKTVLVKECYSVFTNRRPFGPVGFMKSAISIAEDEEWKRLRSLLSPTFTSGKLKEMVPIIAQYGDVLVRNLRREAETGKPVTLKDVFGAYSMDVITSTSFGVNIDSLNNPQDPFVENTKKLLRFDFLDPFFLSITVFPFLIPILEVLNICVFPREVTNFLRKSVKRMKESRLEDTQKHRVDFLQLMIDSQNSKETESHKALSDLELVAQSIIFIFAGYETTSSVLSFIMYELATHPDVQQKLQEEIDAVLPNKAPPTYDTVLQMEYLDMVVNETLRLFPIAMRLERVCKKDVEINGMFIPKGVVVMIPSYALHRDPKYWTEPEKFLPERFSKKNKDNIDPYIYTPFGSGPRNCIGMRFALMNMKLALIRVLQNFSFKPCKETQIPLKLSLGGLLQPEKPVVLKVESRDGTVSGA
# AHR: Aryl hydrocarbon receptor (AHR, Homo sapiens, UniProt P35869)
# Sequence of UniProt P35869 (whole entry, looked up): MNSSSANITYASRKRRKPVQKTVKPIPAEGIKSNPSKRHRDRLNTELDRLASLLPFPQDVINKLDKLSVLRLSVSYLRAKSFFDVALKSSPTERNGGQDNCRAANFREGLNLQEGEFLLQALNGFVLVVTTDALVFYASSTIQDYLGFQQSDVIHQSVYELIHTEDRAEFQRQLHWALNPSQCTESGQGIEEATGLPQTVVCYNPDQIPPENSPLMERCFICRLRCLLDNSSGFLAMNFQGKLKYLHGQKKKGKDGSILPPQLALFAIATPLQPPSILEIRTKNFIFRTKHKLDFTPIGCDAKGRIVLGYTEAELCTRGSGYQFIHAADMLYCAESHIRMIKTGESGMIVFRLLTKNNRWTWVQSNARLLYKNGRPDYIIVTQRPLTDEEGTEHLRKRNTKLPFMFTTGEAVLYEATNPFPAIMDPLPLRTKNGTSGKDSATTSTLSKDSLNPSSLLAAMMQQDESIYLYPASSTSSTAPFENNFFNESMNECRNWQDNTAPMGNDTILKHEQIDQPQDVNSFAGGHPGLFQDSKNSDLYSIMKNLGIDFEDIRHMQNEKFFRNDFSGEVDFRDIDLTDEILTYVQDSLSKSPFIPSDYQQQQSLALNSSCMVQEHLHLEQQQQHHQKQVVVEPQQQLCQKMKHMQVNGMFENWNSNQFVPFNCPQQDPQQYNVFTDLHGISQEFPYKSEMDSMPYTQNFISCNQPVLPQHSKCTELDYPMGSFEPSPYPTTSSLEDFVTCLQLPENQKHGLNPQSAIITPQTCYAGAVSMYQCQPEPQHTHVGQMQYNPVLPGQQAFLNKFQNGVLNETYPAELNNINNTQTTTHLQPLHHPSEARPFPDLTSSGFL
# SLC22A6: Solute carrier family 22 member 6 (SLC22A6, Homo sapiens, UniProt Q4U2R8)
# Sequence of UniProt Q4U2R8 (whole entry, looked up): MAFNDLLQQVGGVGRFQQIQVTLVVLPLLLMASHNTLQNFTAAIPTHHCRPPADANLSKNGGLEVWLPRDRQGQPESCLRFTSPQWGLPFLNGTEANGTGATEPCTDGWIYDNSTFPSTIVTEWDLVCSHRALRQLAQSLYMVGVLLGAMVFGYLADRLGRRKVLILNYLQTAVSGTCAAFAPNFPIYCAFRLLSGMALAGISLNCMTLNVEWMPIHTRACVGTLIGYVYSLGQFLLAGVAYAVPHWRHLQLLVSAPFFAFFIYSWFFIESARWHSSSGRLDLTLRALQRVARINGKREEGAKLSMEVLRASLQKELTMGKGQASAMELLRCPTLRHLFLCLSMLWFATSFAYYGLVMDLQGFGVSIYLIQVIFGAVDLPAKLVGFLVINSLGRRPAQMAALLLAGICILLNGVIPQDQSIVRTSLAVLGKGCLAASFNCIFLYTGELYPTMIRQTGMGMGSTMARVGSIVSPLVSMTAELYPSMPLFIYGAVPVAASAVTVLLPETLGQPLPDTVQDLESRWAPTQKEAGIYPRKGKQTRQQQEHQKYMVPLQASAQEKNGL
# Sequence of UniProt P19785 (whole entry, looked up): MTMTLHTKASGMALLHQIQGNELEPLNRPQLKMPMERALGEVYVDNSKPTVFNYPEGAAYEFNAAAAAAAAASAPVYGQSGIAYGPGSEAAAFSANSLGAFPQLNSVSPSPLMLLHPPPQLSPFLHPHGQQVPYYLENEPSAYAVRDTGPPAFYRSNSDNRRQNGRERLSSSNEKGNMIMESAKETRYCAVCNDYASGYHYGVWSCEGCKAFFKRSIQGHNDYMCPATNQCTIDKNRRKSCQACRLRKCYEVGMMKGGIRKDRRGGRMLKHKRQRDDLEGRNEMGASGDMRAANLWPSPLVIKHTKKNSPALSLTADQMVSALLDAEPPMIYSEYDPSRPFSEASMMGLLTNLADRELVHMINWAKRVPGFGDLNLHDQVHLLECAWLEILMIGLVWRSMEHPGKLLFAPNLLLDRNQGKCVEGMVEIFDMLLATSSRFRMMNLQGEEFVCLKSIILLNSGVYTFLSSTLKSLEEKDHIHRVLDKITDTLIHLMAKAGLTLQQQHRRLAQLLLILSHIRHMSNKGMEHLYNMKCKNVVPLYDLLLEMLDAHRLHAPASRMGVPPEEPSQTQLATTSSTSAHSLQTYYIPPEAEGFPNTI
# Sequence of UniProt Q9UBN7 (whole entry, looked up): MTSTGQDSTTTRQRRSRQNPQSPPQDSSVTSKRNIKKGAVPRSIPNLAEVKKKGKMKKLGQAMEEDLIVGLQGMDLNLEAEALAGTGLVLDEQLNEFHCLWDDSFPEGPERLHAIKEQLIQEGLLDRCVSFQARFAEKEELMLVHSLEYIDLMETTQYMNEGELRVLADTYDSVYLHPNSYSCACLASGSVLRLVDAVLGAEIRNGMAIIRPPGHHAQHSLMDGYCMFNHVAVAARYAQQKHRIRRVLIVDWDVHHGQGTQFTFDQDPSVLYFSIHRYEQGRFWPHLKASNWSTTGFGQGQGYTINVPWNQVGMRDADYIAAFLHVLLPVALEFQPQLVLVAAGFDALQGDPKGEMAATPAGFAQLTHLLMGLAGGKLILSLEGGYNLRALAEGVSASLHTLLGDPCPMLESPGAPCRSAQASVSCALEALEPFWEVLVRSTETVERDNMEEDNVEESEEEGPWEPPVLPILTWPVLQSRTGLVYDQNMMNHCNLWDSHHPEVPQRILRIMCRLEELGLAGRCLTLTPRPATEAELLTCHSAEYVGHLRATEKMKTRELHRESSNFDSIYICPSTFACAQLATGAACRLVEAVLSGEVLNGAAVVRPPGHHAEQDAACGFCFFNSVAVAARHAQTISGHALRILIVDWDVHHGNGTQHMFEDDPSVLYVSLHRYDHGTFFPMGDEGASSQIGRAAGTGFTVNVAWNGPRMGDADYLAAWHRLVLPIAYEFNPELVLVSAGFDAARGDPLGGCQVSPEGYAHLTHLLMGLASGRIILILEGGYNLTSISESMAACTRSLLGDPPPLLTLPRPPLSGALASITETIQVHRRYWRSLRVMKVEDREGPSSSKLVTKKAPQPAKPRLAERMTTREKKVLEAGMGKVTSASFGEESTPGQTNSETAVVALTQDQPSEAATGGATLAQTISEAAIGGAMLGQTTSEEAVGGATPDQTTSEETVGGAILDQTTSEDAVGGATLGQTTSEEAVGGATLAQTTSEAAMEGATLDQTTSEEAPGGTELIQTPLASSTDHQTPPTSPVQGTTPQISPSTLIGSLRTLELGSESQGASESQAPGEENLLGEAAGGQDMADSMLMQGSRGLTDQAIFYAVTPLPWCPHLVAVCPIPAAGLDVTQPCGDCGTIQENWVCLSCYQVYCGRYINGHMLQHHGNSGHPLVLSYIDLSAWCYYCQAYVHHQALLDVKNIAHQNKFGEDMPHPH
# Sequence of UniProt O70423 (whole entry, looked up): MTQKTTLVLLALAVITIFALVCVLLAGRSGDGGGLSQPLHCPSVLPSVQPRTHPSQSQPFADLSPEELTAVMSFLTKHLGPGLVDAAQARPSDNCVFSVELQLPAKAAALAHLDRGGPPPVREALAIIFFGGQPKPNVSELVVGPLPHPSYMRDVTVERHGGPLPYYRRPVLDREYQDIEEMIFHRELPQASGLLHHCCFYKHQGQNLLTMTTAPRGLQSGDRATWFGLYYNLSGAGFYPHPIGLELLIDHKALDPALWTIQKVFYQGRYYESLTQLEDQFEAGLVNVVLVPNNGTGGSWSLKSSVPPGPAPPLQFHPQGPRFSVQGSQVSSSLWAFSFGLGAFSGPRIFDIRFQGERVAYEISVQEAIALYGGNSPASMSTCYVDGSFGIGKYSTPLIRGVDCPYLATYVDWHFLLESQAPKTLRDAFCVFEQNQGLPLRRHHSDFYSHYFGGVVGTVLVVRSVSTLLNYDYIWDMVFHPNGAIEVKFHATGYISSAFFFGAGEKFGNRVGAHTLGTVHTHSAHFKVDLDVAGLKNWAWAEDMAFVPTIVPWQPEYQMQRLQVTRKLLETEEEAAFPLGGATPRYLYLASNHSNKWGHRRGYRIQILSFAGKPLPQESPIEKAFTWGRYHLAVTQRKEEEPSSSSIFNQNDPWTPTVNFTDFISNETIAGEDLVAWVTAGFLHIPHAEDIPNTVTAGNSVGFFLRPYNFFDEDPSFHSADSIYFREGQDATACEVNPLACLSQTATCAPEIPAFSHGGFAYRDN
SMILES,target or system,assay,test system,conditions,how to read,quantity,result
NCc1cc2c(cc1F)C(=O)N(C1CCC(=O)NC1=O)C2 (stereo not shown),"Amine oxidase [copper-containing] 3 (Mus musculus, UniProt O70423)","substrate, LC-MS/MS",recombinant mouse enzyme,"10 µM, 0 h, pH 7.4, together with: inhibitor 0.25 µM",,concentration,8.4 µM
C=CC(=O)N(C)CCOc1c(N)ncnc1-c1cc(F)cc(NC(=O)c2ccc(C3CC3)cc2F)c1C,CYP2B6,,recombinant human CYP,,,fraction metabolised by CYP,0.3%
Cc1cc(Nc2ncnc3ccc(NC4=NC(C)(C)CO4)cc23)ccc1Oc1ccn2ncnc2c1,CYP3A4,,"human, plasma","oral, 300 mg, day 1, single dose alone",,"AUC(0-last), mean",3470 ng·h/mL
CC[C@H]1[C@@H](O)[C@@H]2[C@H](CC[C@]3(C)[C@@H]([C@H](C)CCNC(=O)NS(=O)(=O)c4ccc(C(C)(C)C)cc4)CC[C@@H]23)[C@@]2(C)CC[C@@H](O)C[C@@H]12,CYP3A4,substrate,"human, plasma","10 mg, alone, study day 1",,Cmax mean,33.4 ng/mL
Cc1[nH]c2ccccc2c1C(=O)c1ccccc1,AHR,"reporter gene, agonist, XRE luciferase",HepG2,10 µM,reference: ITE,activity at 10 µM,7%
C=C(F)C(=O)N1CCN(c2nc(OC[C@@H]3CCCN3C)nc3c2CCN(c2cccc4cccc(Cl)c24)C3)C[C@@H]1CC#N,CYP3A4,,"healthy volunteers, plasma","200 mg, median, together with: itraconazole once daily",,Tmax,8 h
Cc1nc2n(c(=O)c1CCN1CCC(c3noc4cc(F)ccc34)CC1)CCCC2,H+/organic cation antiporter,cell uptake,hCMEC/D3,,,intrinsic clearance,26.3 µL/min/mg protein
NC/C(=C\F)COc1cccc(Cn2c(=S)[nH]c(=O)c3[nH]cnc32)c1,SLC22A6,"transport, inhibitor",CHO cells expressing SLC22A6,"30 µM, together with: CF substrate",,inhibition,< 50%
Cc1cc(Nc2ncnc3ccc(NC4=NC(C)(CO)CO4)cc23)ccc1Oc1ccn2ncnc2c1 (stereo not shown),CYP3A4,,"human, plasma","oral, 300 mg tucatinib single dose, day 1, tucatinib alone",,half-life (arithmetic mean),11.7 h
CC(CN(C)C)CN1c2ccccc2CCc2ccccc21 (stereo not shown),H+/organic cation antiporter,cell uptake,hCMEC/D3,,,intrinsic clearance,100 µL/min/mg protein
CCS(=O)(=O)N1CC(CC#N)(n2cc(-c3ncnc4[nH]ccc34)cn2)C1,SLC22A6,"substrate transport, inhibitor",cells expressing human OAT1,"Iu 0.072 µM, together with: 14C-PAH 2 µM",,Iu/IC50 ratio,< 0.001
N#C[C@H](C[C@@H]1CCCNC1=O)NC(=O)[C@H](CC1CC1)NC(=O)c1cc2cccc(Cl)c2[nH]1,CYP2B6,ISEF abundance scaling,,"2 µM, pH 7.4",,fraction metabolised,< 1%
CCCCN1CCCCC1C(=O)Nc1c(C)cccc1C (stereo not shown),H+/organic cation antiporter,cell uptake,hCMEC/D3,,,intrinsic clearance,6.9 µL/min/mg protein
CC1(C)CCC2(CC1)N[C@@H](C(=O)N[C@@H]1CC[C@@H](C(N)=O)OC1)[C@H](c1ccnc(Cl)c1F)[C@]21C(=O)Nc2cc(Cl)ccc21,"ABCB1 (Homo sapiens, UniProt P08183)",,Caco-2 monolayers,"1 µM, 120 min, no inhibitor",,Papp B to A,18.2 ×10⁻⁶ cm/s
C=CCN1C[C@H](C(=O)N(CCCN(C)C)C(=O)NCC)C[C@@H]2c3cccc4[nH]cc(c34)C[C@H]21,H+/organic cation antiporter,cell uptake,hCMEC/D3,,,intrinsic clearance,81.4 µL/min/mg protein
Cc1ncc(CO)c(C(=O)O)c1O,"SLC22A7 (Homo sapiens, UniProt Q9Y694)",substrate,HEK293 control cells,,,uptake rate,2.8 ± 0.3 pmol/min/mg protein
CCCN1CCCC[C@H]1C(=O)Nc1c(C)cccc1C,H+/organic cation antiporter,cell uptake,hCMEC/D3,,,intrinsic clearance,4.4 µL/min/mg protein
N#Cc1c2n(c3c(=O)n(CC(=O)O)cnc13)CCCC2,"Ubiquitin carboxyl-terminal hydrolase 13, ZnF-UBD domain (USP13, Homo sapiens, UniProt Q92995)",,,,,Kd,> 1000 µM
CCCCC1=NC2(CCCC2)C(=O)N1Cc1ccc(-c2ccccc2S(=O)(=O)Nc2noc(C)c2C)c(COCC)c1,CYP3A4,mechanism-based inhibitor,,,,kinact,3.17 h⁻¹
Cn1cc(-c2ccc(-c3cncc(Cl)c3N3CCC4(CCNC4=O)CC3)cc2)cn1,COLO 205,"gene expression, microarray, measured: TLR3 mRNA",,"concentration not given, 6 h",reference: untreated cells,log2 fold change,2.53
C=CC(=O)Nc1cc(Nc2nccc(-c3cn(C)c4ccccc34)n2)c(OCC(F)(F)F)nc1N(C)CCNC,CYP3A4,"substrate, recombinant enzyme, substrate depletion",,,,fraction metabolised,53%
O=C1c2cccc3c2[C@H](CCC3)CN1[C@@H]1CN2CCC1CC2,H+/organic cation antiporter,cell uptake,hCMEC/D3,,,intrinsic clearance,46.1 µL/min/mg protein
CC[C@@H]1[C@H](F)C(=O)N[C@@H]1COc1nccc2cc(C(N)=O)c(OC)cc12,"STK16 (Homo sapiens, UniProt O75716)","ATP-site probe binding, ActivX profiling",THP-1 cell lysate,Lys1 site,,IC50,0.66 µM
Oc1ccc([C@@H]2Oc3ccc(O)cc3[C@@H]3CCC[C@@H]32)cc1,"Estrogen receptor (Mus musculus, UniProt P19785)",agonist,female immature mouse,"oral, 4 days",,uterotrophic effective dose,100 mg/kg
COCCc1ccc(OCC(O)CNC(C)C)cc1 (stereo not shown),H+/organic cation antiporter,cell uptake,hCMEC/D3,,,intrinsic clearance,10.3 µL/min/mg protein
Cc1oc2ccccc2c1Cc1cc(I)c(OCC(=O)O)c(I)c1,"KCNH2 (Homo sapiens, UniProt Q12809)","potassium current, whole-cell patch clamp",HEK293 expressing hERG1,"10 µM, 10 mM K+",,activation V1/2,-19.6 mV
C[C@H]1CN(C2COC2)CCN1c1ccc(Nc2cc(-c3ccnc(N4CCn5c(cc6c5CC(C)(C)C6)C4=O)c3CO)cn(C)c2=O)nc1,human CYP2C19,,human liver microsomes,"1 µM, 60 min, pH 7.4, together with: (+)-N-3-benzylnirvanol 2 µM, NADPH",reference: 0 min,remaining compound,56.2 ± 5.7%
CC(C)=CCc1c(O)cc(O)c2c1O[C@H](c1ccc(O)cc1)CC2=O,human CYP2D6,,,"10 µM, pH 7.4",,inhibition,< 10%
O=C(O)CCc1ccno1,"Protein deacetylase HDAC6, ZnF-UBD domain (HDAC6, Homo sapiens, UniProt Q9UBN7)",,,,,Kd,> 1000 µM
COc1ccccc1C(=O)c1c[nH]c2ccccc12,AHR,"reporter gene, agonist",HepG2,XRE-driven luciferase,reference: ITE 10 µM,Emax,12%
C=CC(=O)N1C[C@H](Nc2ncnc3[nH]ccc23)CC[C@@H]1C,CYP3A,substrate,"human, plasma","oral, single dose, together with: itraconazole multiple doses",,AUC(0-t),304 ng·h/mL
